Published values pooled from the literature.
Numbered parts are unrelated; each lists some results of a single study. Substitutions count along the parent as printed.

Sample 1
Target: vanadate, free oxyanion
Method: microfluidic competitive inhibition
Medium: in vitro, cell-free expressed
Tested at: not given
Notes: derived from inhibition constants, unchanged parent 676 nM
Direction: lower = stronger binding
Parent: PafA, mature enzyme, eGFP fusion (Elizabethkingia meningoseptica, UniProt Q9KJX5); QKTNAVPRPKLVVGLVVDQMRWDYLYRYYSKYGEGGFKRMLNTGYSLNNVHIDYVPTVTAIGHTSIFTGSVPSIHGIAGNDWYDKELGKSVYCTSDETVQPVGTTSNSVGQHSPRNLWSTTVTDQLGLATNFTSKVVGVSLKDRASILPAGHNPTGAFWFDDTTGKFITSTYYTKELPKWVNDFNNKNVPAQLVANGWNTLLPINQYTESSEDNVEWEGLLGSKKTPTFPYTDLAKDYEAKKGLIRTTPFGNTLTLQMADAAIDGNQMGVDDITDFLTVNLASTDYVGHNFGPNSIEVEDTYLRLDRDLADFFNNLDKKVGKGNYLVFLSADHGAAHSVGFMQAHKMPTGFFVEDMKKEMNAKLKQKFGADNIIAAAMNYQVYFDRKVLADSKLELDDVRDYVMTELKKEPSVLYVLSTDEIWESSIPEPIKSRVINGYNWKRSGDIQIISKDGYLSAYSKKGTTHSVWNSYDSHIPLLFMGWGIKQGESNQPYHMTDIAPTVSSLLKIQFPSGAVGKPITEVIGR
Change	oxyanion analog dissociation constant [nM]
V6A	631
S513G	508
L128G	547
F328G	922
G288A	589

Sample 2
Target: CCNE2, cyclin fold, Cln2 fusion (human)
Method: yeast growth competition, sequencing
Medium: yeast
Notes: weak parent motif
Baseline: not given
Direction: higher = stronger binding
Parent: viral docking peptide; PTARRRLLHDLDT
Change	normalised enrichment score
PTARARLLHDLDT [R5A]	0.428
PTAARRLLHDLDT [R4A]	-0.546
PTARKRLLHDLDT [R5K]	0.0849
PTARRALLHDLDT [R6A]	1.09
PTARAAAAHDLDT [R5A R6A L7A L8A]	-0.0505
PTARKRLLFDLDT [R5K H9F]	2.19
PTARRRLLHDADT [L11A]	0.579
PTARRRLLFDLDT [H9F]	4.97
PTARRRLLADLDT [H9A]	1.44
PTARRRLLHDLAT [D12A]	0.516

Sample 3
Target: CRIPT, C-terminal peptide
Method: DHFR complementation, deep sequencing
Medium: yeast
Notes: single substitutions, model-inferred values
Baseline: wild type
Direction: higher = weaker binding
Parent: ERBIN, PDZ domain 1 (human); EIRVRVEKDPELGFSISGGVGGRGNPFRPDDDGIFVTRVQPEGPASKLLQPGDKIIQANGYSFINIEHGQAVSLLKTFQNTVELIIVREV; partner TKNYKQTSV
Change	binding free energy change [kcal/mol]
G24V	1.14
A45F	1.36
G13S	1.09
V4E	0.822
D32H	0.333
D32F	0.592
G43D	1.18
T37A	0.369

Mixed results
Compound	target	assay	setting	measurement	result
CNCc1ccccc1-c1csc([C@@H](C)Nc2nc(C)nc3cc(OC)c(OC)cc23)c1	Calcium-dependent protein kinase 1 (CDPK1, Plasmodium falciparum, UniProt P62344)	cell-free assay, competition with immobilised ligand	1 µM	remaining binding	100%

A few entries again (sample 1):
Change	oxyanion analog dissociation constant [nM]
S513G	508
L128G	547
F328G	922
G288A	589
